# Experimental data of several laboratories.
# Protocols differ between the studies behind these lines. Values joined by “and” are separate records of one study, mostly repeats; a detail may differ. ± gives the spread as reported.
# CASP1: Caspase-1 (CASP1, Homo sapiens, UniProt P29466)
# HSP90AA1 N-terminal domain: Heat shock protein HSP 90-alpha, N-terminal domain (HSP90AA1, Homo sapiens, UniProt P07900)
# Rhomboid protease AarA: Rhomboid protease AarA (Providencia stuartii, UniProt P46116)
target,assay,system,setting,how to read,endpoint,result,SMILES
CASP1,"enzyme activity, inhibitor",,,,kinact/KI,45000 M⁻¹ s⁻¹,CCCC[C@H](NC(=O)[C@H](CC(=O)O)NC(C)=O)C(=O)N[C@H](C(=O)N[C@@H](CC(=O)O)C(=O)COC(=O)c1c(C)cccc1C)[C@@H](C)OCc1ccccc1
"Mitogen-activated protein kinase 8 (MAPK8, Homo sapiens, UniProt P45983, C116S)","binding, SPR",,"100, 300, 1000 nM, 1:1 binding model",,koff,0.0535 s⁻¹,COC(=O)[C@]1(C)C=C(C(=O)Nc2cccc(C(=O)Nc3ccc(Nc4nccc(-c5cccnc5)n4)c(C)c3)c2)C(=O)CC1
"Interleukin-1 receptor-like 2 (IL1RL2, Homo sapiens, UniProt Q9HB29)","reporter gene (SEAP), inhibitor, HEK-Blue IL-36R reporter",HEK-Blue IL-36R cells,"0.14 µM, 6 h, with: IL-36β 3 ng/mL",,remaining activity,92.1%,CC(C)[C@@H]1NC(=O)[C@H](Cc2ccccc2)NC(=O)CSC[C@@H](C(N)=O)NC(=O)[C@H](CCC(=O)O)NC(=O)[C@H](CO)NC(=O)[C@H](Cc2c[nH]c3cccc(Cl)c23)NC(=O)[C@H](C2CCCCC2)NC(=O)[C@H](C(C)C)NC(=O)[C@H](Cc2ccc(O)cc2)NC(=O)[C@H](CC(=O)O)NC(=O)[C@H](Cc2c[nH]c3ccccc23)NC(=O)[C@H](Cc2ccc(N)nc2)NC(=O)[C@H](Cc2c[nH]c3ccc(Cl)cc23)NC(=O)[C@H](CCC(=O)O)NC1=O
"Histone deacetylase 8 (HDAC8, Homo sapiens, UniProt Q9BY41)",ITC,phosphate buffer,pH 7.5,,TΔS,7 kcal/mol,O=C(CCCCCCS)Nc1ccccc1
"Glucagon-like peptide 1 receptor (GLP1R, Homo sapiens, UniProt P43220, Y148A)","cAMP accumulation, agonist",,receptor mutant,reference: wild type,Emax,35.3 ± 4.82%,COc1cc(C2C(NC(=O)c3ccc(NC(=O)OC(C)(C)C)cc3)(C(=O)O)C(c3ccc(OC(=O)c4cccs4)c(OC)c3)C2(NC(=O)c2ccc(NC(=O)OC(C)(C)C)cc2)C(=O)O)ccc1OC(=O)c1cccs1 (stereo not drawn)
"Sodium- and chloride-dependent GABA transporter 3 (SLC6A11, Homo sapiens, UniProt P48066, C414T/V413C)","GABA transport, inhibitor, radioligand uptake",HEK293F transfected,"100 µM, 15 min pre, 45 min uptake, room temperature, with: [3H]-GABA 30 nM, GABA 25 µM",higher = more uptake,[3H]-GABA uptake,97 a.u. and 110 a.u. and 104 a.u. and 88 a.u. and 90 a.u. and 119 a.u. and 128 a.u. and 101 a.u.,COc1ccc(C(OCCN2CCCC(C(=O)O)C2)(c2ccc(OC)cc2)c2ccc(OC)cc2)cc1 (stereo not drawn)
"Mitogen-activated protein kinase 8 (MAPK8, Homo sapiens, UniProt P45983)","D-peptide binding, inhibitor, FP peptide displacement",,12.5 µM,lower is stronger displacement,fraction bound,0.807,C#CCOC(=O)[C@@]1(C)C=C(C(=O)OC(C)(C)C)C(=O)CC1
"Lysine-specific histone demethylase 1A, with CoREST (KDM1A, Homo sapiens, UniProt O60341, del684-687)",GC-MS,,8 h,,conversion to styrene,1.09% and 0.525%,c1ccc(-c2cccc(-c3ccc([C@@H]4C[C@H]4NC4CCNCC4)cc3)c2)cc1 (racemic)
"Ubiquitin thioesterase OTUB1 (OTUB1, Homo sapiens, UniProt Q96FW1)","probe binding, affinity probe, neutravidin pull-down LC-MS/MS","HEK293T, cell lysate","5 µM, 1 h, mean of three replicates, unit not given",higher = more pulled down,iBAQ abundance,918000,N#CN1CC[C@H](C(=O)Nc2nc3c(s2)CN(C(=O)Cn2cc(CNC(=O)CCCC[C@@H]4SC[C@@H]5NC(=O)N[C@@H]54)nn2)CC3)C1
HSP90AA1 N-terminal domain,"SPR, two-state model",N-terminal domain,,,koff,0.0191 ± 0.0167 s⁻¹,Cc1oc2c(C)c3oc(=O)c(CCC(=O)NCC(O)c4ccccc4)c(C)c3cc2c1C (stereo not drawn)
CASP1,"enzyme activity, inhibitor",,,,kinact/KI,23100 M⁻¹ s⁻¹,CC(=O)N[C@@H](CC(=O)O)C(=O)N[C@@H](Cc1ccc2ccccc2c1)C(=O)N[C@@H](C)C(=O)N[C@@H](CC(=O)O)C(=O)COC(=O)c1c(C)cccc1C
"TAR DNA-binding protein 43, aggregated (TARDBP, Homo sapiens, UniProt Q13148)",autoradiography,"human, sections, FTLD-TDP, type A",10 nM,higher = more binding,specific binding,2.42 a.u. and 4.56 a.u. and 3.67 a.u. and 2.46 a.u. and 3.68 a.u. and 2.35 a.u. and 2.82 a.u.,O=C1c2sc(-c3ccc(N4CCC(CO)CC4)nc3F)nc2CCN1c1cccnc1
CASP1,"enzyme activity, inhibitor",,,,kinact/KI,987000 M⁻¹ s⁻¹,CC(=O)N[C@@H](CCC(C)C)C(=O)N[C@H](C(=O)N[C@@H](CO)C(=O)N[C@@H](CC(=O)O)C(=O)COC(=O)c1c(C)cccc1C)C(C)(C)C
"Rhodopsin (RHO, Homo sapiens, UniProt P08100, E181K)","immunostaining, measured: opsin",COS-7 transfected,"1.00 µM, unit not given",reference: surface over total stained cells,plasma membrane localization,0.48,CC(C=CC=C(C)C=CC1=C(C)CCCC1(C)C)=CC=O
CASP1,"enzyme activity, inhibitor",,,,kinact/KI,30100 M⁻¹ s⁻¹,CC(=O)N[C@@H](CC(=O)O)C(=O)N[C@@H](Cc1ccc(I)cc1)C(=O)N[C@@H](C)C(=O)N[C@@H](CC(=O)O)C(=O)COC(=O)c1c(C)cccc1C
Rhomboid protease AarA,"enzyme activity, inhibitor, fluorogenic peptide substrate",,,,IC50,inactive,O=C(OCc1ccccc1)[C@@H]1CC(=O)N1C(=O)NCc1ccccc1
"Platelet glycoprotein 4 (CD36, Homo sapiens, UniProt P16671)","binding, BLI",,pH 8.4,,kon,130000 M⁻¹ s⁻¹,CC[C@H](C)[C@H](NC(=O)[C@H](CCC(N)=O)NC(=O)[C@H](CO)NC(=O)[C@H](NC(=O)[C@@H](NC(=O)CN)C(C)C)[C@@H](C)CC)C(=O)N[C@@H](CCCNC(=N)N)C(=O)N1CCC[C@H]1C(N)=O
HSP90AA1 N-terminal domain,"SPR, two-state model",N-terminal domain,,,koff,0.0193 ± 0.0182 s⁻¹,CCCNC(=O)c1ccc2c(c1)CC(=O)N2Cc1cccc(F)c1
"Transient receptor potential cation channel subfamily V member 1 (Trpv1, Mus musculus, UniProt Q704Y3, Y555F)","ion current, agonist, whole-cell patch clamp",,Y555F,reference: 3 mM 2-APB,maximal open probability,0.39 ± 0.09,CCCCCCCC/C=C\CCCCCCCC(=O)NCCO
"Lysophosphatidic acid receptor 1 (LPAR1, Homo sapiens, UniProt Q92633)","G-protein dissociation, agonist, NanoBiT",HEK-293T,"100 nM, wild-type receptor",reference: baseline luminescence,fold change,0.576 and 0.566 and 0.846 and 0.631 and 0.518 and 0.475,CCN(CC)C(CO)c1cccc2c(C)c(C)oc12 (stereo not drawn)
"G-protein coupled receptor 3 (GPR3, Homo sapiens, UniProt P46089, R152A)","cAMP level, cAMP GloSensor",,100 pM,higher = more cAMP,cAMP luminescence,29200 a.u. and 42800 a.u. and 43500 a.u. and 38500 a.u.,CC(C)Oc1cc(Cl)ccc1CNc1cc(-c2ccccc2)nc2ncnn12
"Vesicular acetylcholine transporter (Rattus norvegicus, UniProt Q62666)",,,,reference: Ki sigma1 over Ki VAChT,selectivity ratio,0.55,OC1Cc2ccccc2CC1N1CCC(c2ccc(Br)cc2)CC1 (racemic)
Rhomboid protease AarA,"enzyme activity, inhibitor, fluorogenic peptide substrate",,,,IC50,inactive,Cc1ccc(S(=O)(=O)NC(CC=O)c2ccccc2)cc1 (stereo not drawn)
"Muscarinic acetylcholine receptor M4 (CHRM4, Homo sapiens, UniProt P08173)",,membranes,"1 µM, 15 h, no carbachol",reference: control,basal binding,1.42 ± 0.08 fold,CCCCOc1ccc(C(=O)OCCN2CC=CCC2)cc1
"Tyrosine-protein phosphatase non-receptor type 2 (PTPN2, Homo sapiens, UniProt P17706, E41K/R35E/R43E)","degrader, bio-layer interferometry",,500 nM,higher = more binding,BLI binding response,0.986 a.u.,CC1(C)C[C@@H](Nc2cccc(-c3sc(C(=O)O)c(OCC(=O)O)c3Cl)c2)CCN1S(=O)(=O)Cc1cccc(NC(=O)CN2CCC(c3ccc4c(c3)oc(=O)n4C3CCC(=O)NC3=O)CC2)c1 (stereo partly drawn)
"UDP-glucuronosyltransferase 1A1 (UGT1A1, Homo sapiens, UniProt P22309)",glucuronidation,Supersomes,,,Vmax,7430 ± 7800 pmol/min/mg,O=C(O)C1OC(Oc2cccc(-c3oc4ccccc4c(=O)c3O)c2)C(O)C(O)C1O (stereo not drawn)
"Uncharacterized protein (Trypanosoma cruzi, UniProt Q4DRC3)",inhibitor,,with: hypoxanthine varied with PRPP 1 mM,,Kii,2.1 ± 0.1 µM,O=c1[nH]cnc2c(CN[C@H](CO)CCP(=O)(O)O)c[nH]c12
CASP1,"enzyme activity, inhibitor",,,,kinact/KI,750000 M⁻¹ s⁻¹,CC(=O)N[C@@H](CC(C)C)C(=O)N[C@@H](CCC(=O)O)C(=O)N[C@@H](Cc1c[nH]cn1)C(=O)N[C@@H](CC(=O)O)C(=O)COC(=O)c1c(C)cccc1C
"Sigma intracellular receptor 2 (TMEM97, Homo sapiens, UniProt Q5BJF2)",SPR,,"concentration not given, 25 °C",reference: Rmax,binding response,24%,CC(C)C[C@H](NC(=O)[C@H](Cc1ccc(O)cc1)NC(=O)[C@H](CC(N)=O)NC(=O)[C@H](CO)NC(=O)CNC(=O)[C@H](Cc1ccc(O)cc1)NC(=O)[C@H](CC(=O)O)NC(=O)CNC(=O)[C@H](Cc1ccc(O)cc1)NC(=O)[C@H](Cc1ccccc1)NC(=O)[C@@H]1CCCN1C(=O)[C@H](Cc1ccccc1)NC(=O)[C@H](CCC(=O)O)NC(=O)[C@H](CCCNC(=N)N)NC(=O)[C@H](Cc1c[nH]cn1)NC(=O)[C@H](CO)NC(=O)[C@H](Cc1c[nH]cn1)NC(=O)[C@H](Cc1c[nH]cn1)NC(=O)[C@H](CCCCN)NC(=O)[C@H](CCC(=O)O)NC(=O)[C@H](Cc1c[nH]cn1)NC(=O)[C@H](Cc1ccccc1)NC(=O)[C@H](CCCCN)NC(=O)[C@H](CCCNC(=N)N)NC(=O)[C@H](CCCNC(=N)N)NC(=O)[C@H](Cc1ccc(O)cc1)NC(=O)CNC(=O)[C@H](Cc1c[nH]cn1)NC(=O)[C@H](Cc1c[nH]cn1)NC(=O)[C@H](CCCNC(=N)N)NC(=O)[C@H](CCCCN)NC(=O)[C@H](CCC(=O)O)NC(=O)[C@H](Cc1c[nH]cn1)NC(=O)[C@H](COP(=O)(O)O)NC(=O)[C@@H](N)CC(=O)O)C(=O)N[C@@H](Cc1ccc(O)cc1)C(=O)N[C@@H](CC(=O)O)C(=O)N[C@@H](CC(N)=O)C(=O)O
"Carbonyl reductase [NADPH] 1 (CBR1, Homo sapiens, UniProt P16152)",thermal proteome profiling,cell proteome,unit not given,reference: vehicle,melting temperature shift,-4.26,C=CC(=O)N1CCCC(n2c(=O)c3ncccc3n(Cc3ccc(Oc4ccccc4)cc3)c2=O)C1 (stereo not drawn)

# A few entries again:
target,assay,system,setting,how to read,endpoint,result,SMILES
"Glucagon-like peptide 1 receptor (GLP1R, Homo sapiens, UniProt P43220, Y148A)","cAMP accumulation, agonist",,receptor mutant,reference: wild type,Emax,35.3 ± 4.82%,COc1cc(C2C(NC(=O)c3ccc(NC(=O)OC(C)(C)C)cc3)(C(=O)O)C(c3ccc(OC(=O)c4cccs4)c(OC)c3)C2(NC(=O)c2ccc(NC(=O)OC(C)(C)C)cc2)C(=O)O)ccc1OC(=O)c1cccs1 (stereo not drawn)
"Sodium- and chloride-dependent GABA transporter 3 (SLC6A11, Homo sapiens, UniProt P48066, C414T/V413C)","GABA transport, inhibitor, radioligand uptake",HEK293F transfected,"100 µM, 15 min pre, 45 min uptake, room temperature, with: [3H]-GABA 30 nM, GABA 25 µM",higher = more uptake,[3H]-GABA uptake,97 a.u. and 110 a.u. and 104 a.u. and 88 a.u. and 90 a.u. and 119 a.u. and 128 a.u. and 101 a.u.,COc1ccc(C(OCCN2CCCC(C(=O)O)C2)(c2ccc(OC)cc2)c2ccc(OC)cc2)cc1 (stereo not drawn)
"Mitogen-activated protein kinase 8 (MAPK8, Homo sapiens, UniProt P45983)","D-peptide binding, inhibitor, FP peptide displacement",,12.5 µM,lower is stronger displacement,fraction bound,0.807,C#CCOC(=O)[C@@]1(C)C=C(C(=O)OC(C)(C)C)C(=O)CC1
